Measured values collected from several papers.
Compare with care: the assays were run in different laboratories. Values joined by “and” are separate records of one study, mostly repeats; a detail may differ.

SMILES = O=C(Nc1cc(C(F)F)ns1)Nc1cc(F)ncc1CO; method = HPLC; medium = PBS; time = 24 h; pH = pH 7.4; solubility = ≥ 100 µM
SMILES = CC(=O)c1c(O)c(C)c(O)c2c1OC1=CC(=O)/C3=C(/C)N[C@H](C(=O)O)CC1=CC=CC=C[C@]2(C)C3=O; method = HPLC; medium = water; time = 24 h; temperature = 25 °C; solubility = 4360 µM
SMILES = CC(C)(C)c1ccc(O)c(C(=O)Nc2ccc(CN)cc2)c1; medium = PBS; pH = pH 7.4; solubility = 265 µM
SMILES = CC(C)CCCC(C)CCCC(C)CCOC1OC[C@@H](O)[C@H](O)[C@H]1O (some centres unmarked); medium = water; solubility = 86.5 µM
SMILES = Nc1ccc(-c2ccc3ncc4c(=O)[nH]c(=O)n(-c5cccc(C(F)(F)F)c5)c4c3n2)cn1; medium = aqueous buffer; pH = pH 7; solubility = < 0.001 mg/mL
SMILES = COc1ccc(-c2oc3ccc(-c4cc(OC)c(OC)c(OC)c4)cc3c2C#CC2(O)CCCCC2)cc1; medium = aqueous buffer; solubility = < 0.001 mg/mL
SMILES = C[C@H](CCC(=O)NCCc1ccc(-c2ccccc2)cc1)[C@H]1CC[C@H]2[C@@H]3CC[C@@H]4CC(=O)CC[C@]4(C)[C@H]3CC[C@]12C; medium = simulated gastric fluid; time = 48 h; pH = pH 1; temperature = 25 °C; setting = acidic; solubility = 9 µM
SMILES = CCOc1cccc(C(=O)Nc2ccc(-c3nc4ccccc4[nH]3)cc2)c1; medium = aqueous buffer; pH = pH 6.5; solubility = < 5 µM
SMILES = Cc1c(-c2ccc(Cc3ccc(OC(F)(F)F)cc3)cc2)[nH]c2cccc(F)c2c1=O; medium = water; time = 24 h; solubility = 0.27 µM
SMILES = COc1cc(C)c(-c2ccc(O)c3c2C[C@@H](C)N[C@@H]3C)c2cccc(O)c12 (single isomer, unassigned); method = shake flask; medium = PBS; time = 24 h; pH = pH 6.5; temperature = 25 °C; solubility = 180 µM
SMILES = CC12N3Cc4c(c(OCCCS(=O)(=O)[O-])c5ccccc5c4OCCCS(=O)(=O)[O-])CN1C(=O)N1CN4C(=O)N5CN6C(=O)N7Cc8c(c(OCCCS(=O)(=O)[O-])c9ccccc9c8OCCCS(=O)(=O)[O-])CN8C(=O)N(CN9C(=O)N(CN(C3=O)C12C)C4C95)C6(C)C87C.[Na+].[Na+].[Na+].[Na+] (centres unmarked); method = NMR; medium = aqueous buffer; solubility = > 300000 µM and 336000 µM
SMILES = OC(CN1CCC2(CC1)CC(O)c1ccc3ccccc3c1O2)c1ccc(F)c(F)c1 (centres unmarked); medium = aqueous buffer; pH = pH 7.4; solubility = 57.1 µM
SMILES = COc1cc2c(=O)c(C(=O)NCCNCCO)cn(Cc3ccccc3)c2cc1OCc1ccc(C(C)(C)C)cc1; method = shake flask; medium = PBS; time = 24 h; pH = pH 6.5; temperature = 25 °C; solubility = 10 µM
SMILES = CCCS(=O)(=O)N1CCN(Cc2ccc(NC(=O)c3ccc(-c4cc(NC(=O)C5CC5)ccc4OC(F)(F)F)cc3)cc2)CC1; medium = aqueous buffer; pH = pH 7; solubility = < 0.0016 mg/mL
SMILES = O=C(C1CCN(c2nnnn2-c2ccccc2)CC1)N1CCCc2ccccc21; medium = PBS; time = 2 h; pH = pH 7.4; temperature = 25 °C; solubility = 7 µM
SMILES = O=C1CCCCC(=O)Nc2ccc3ncc(cc3c2)C(=O)NCc2cccc(c2)CNC(=O)c2cnc3ccc(cc3c2)N1; medium = aqueous buffer; pH = pH 7.4; solubility = 3 µM
SMILES = CC(C)c1ccc(C(=O)Nc2ccc(CN)cc2)c(O)c1; medium = PBS; pH = pH 7.4; solubility = 47 µM
SMILES = CN(C1COC1)C(C)(C)/C=C(\C#N)C(=O)N1CCC[C@H]1Cn1nc(-c2ccc(Oc3ccccc3)cc2F)c2c(N)ncnc21; medium = aqueous buffer; pH = pH 7; solubility = 126 µM
SMILES = O=c1c2ccccc2[se]n1CCCCCCn1[se]c2ccccc2c1=O; method = HPLC; medium = water; time = 24 h; temperature = 25 °C; solubility = 0.001 to 0.002 mg/mL
SMILES = CC(C)CCCC(C)CCCC(C)CCO[C@@H]1O[C@H](CO)[C@@H](O[C@H]2O[C@H](CO)[C@@H](O)[C@H](O)[C@H]2O)[C@H](O)[C@H]1O (some centres unmarked); medium = water; time = 15 h; solubility = > 1810 µM
SMILES = N#CC(C#N)=NNc1ccc(-c2ccc(F)cc2F)cc1; method = NMR; medium = aqueous buffer; solubility = < 500 µM
SMILES = CCc1cnc(NC(=O)c2cc(S(=O)(=O)N3CCOCC3)ccc2N(C)C2CCCC2)s1; medium = aqueous buffer; pH = pH 7.4; solubility = 23.8 µM
SMILES = CCn1cc(C(=O)NCCNCCO)c(=O)c2cc(OCc3ccc(F)cc3)c(Cl)cc21; method = shake flask; medium = PBS; time = 24 h; pH = pH 6.5; temperature = 25 °C; solubility = 15 µM
SMILES = CC12N3Cc4c(OCCCS(=O)(=O)[O-])ccc(OCCCS(=O)(=O)[O-])c4CN1C(=O)N1CN4C(=O)N5Cc6c(OCCCS(=O)(=O)[O-])ccc(OCCCS(=O)(=O)[O-])c6CN6C(=O)N(CN(C3=O)C12C)C4(C)C65C.[Na+].[Na+].[Na+].[Na+] (centres unmarked); method = NMR; medium = aqueous buffer; solubility = 396000 µM
SMILES = COc1ccc(Nc2nccc(-c3c[nH]nc3-c3cccnc3)n2)cc1; medium = aqueous buffer; pH = pH 7.4; solubility = 0.0064 mg/mL
SMILES = O=c1c(-c2cccnc2)c[nH]n1-c1ccc(CO)cn1; medium = water; solubility = 4.8 mg/mL
SMILES = O=C(NCCNCCO)c1cn(Cc2ccccc2)c2c(Cl)c(OCc3ccc(C(F)(F)F)cc3)c(Cl)cc2c1=O; method = shake flask; medium = PBS; time = 24 h; pH = pH 6.5; temperature = 25 °C; solubility = < 5 µM
SMILES = C[n+]1cc(C(=O)NCc2cccc(CNC(=O)c3cc4ccccc4[n+](C)c3)c2)cc2ccccc21; medium = aqueous buffer; pH = pH 7.4; solubility = 230 µM
SMILES = CC(=O)N[C@@H](CCC(N)=O)C(=O)N[C@@H](CCC(N)=O)C(=O)N[C@@H](CCCCN)C(=O)N[C@@H](Cc1ccccc1)C(=O)N[C@@H](CCC(N)=O)C(=O)O[C@@H](Cc1ccccc1)C(=O)N[C@@H](CCC(N)=O)C(=O)N[C@@H](Cc1ccccc1)C(=O)N[C@@H](CCC(=O)O)C(=O)N[C@@H](CCC(N)=O)C(=O)N[C@@H](CCC(N)=O)C(N)=O; medium = water; solubility = ≥ 15000 µM
SMILES = COc1ccc(-c2oc3ccc(-c4cc(OC)c(OC)c(OC)c4)cc3c2C#CC(C)(C)O)cc1; medium = aqueous buffer; solubility = < 0.001 mg/mL
SMILES = CC(=O)N[C@@H](CCC(N)=O)C(=O)N[C@@H](CCC(N)=O)C(=O)N[C@@H](CCCCN)C(=O)N[C@@H](Cc1ccccc1)C(=O)N[C@@H](CCC(N)=O)C(=O)OC(C)C(=O)N[C@@H](CCC(N)=O)C(=O)N[C@@H](Cc1ccccc1)C(=O)N[C@@H](CCC(=O)O)C(=O)N[C@@H](CCC(N)=O)C(=O)N[C@@H](CCC(N)=O)C(N)=O (some centres unmarked); medium = water; solubility = ≥ 15000 µM
SMILES = Cc1sc2ncn(CC(=O)N3CCCC3)c(=O)c2c1-c1cccc(Br)c1; medium = aqueous buffer; pH = pH 7.4; solubility = > 100 µM
SMILES = C[N+](C)(C)C[C@@H](O)CC(=O)O.O=C([O-])[C@H](O)Cc1ccccc1; medium = water; solubility = 1460 mg/mL
SMILES = CCC1Sc2ccc(S(=O)(=O)CCC(=O)Nc3cccc4ccccc34)cc2NC1=O (centres unmarked); medium = aqueous buffer; solubility = 30 µM
SMILES = O=C(Nc1ccccc1O)c1ccc(-c2ccc(Cl)cc2Cl)o1; medium = aqueous buffer; pH = pH 6.5; solubility = < 5 µM
SMILES = COc1cc(/C=C/C(=O)C(Cc2ccc(O)c(OC)c2)C(=O)/C=C/c2ccc(O)c(OC)c2)ccc1O; method = HPLC; medium = water; solubility = < 0.001 mg/mL
SMILES = CCC1CNC(CC)CN(C(C(=O)[O-])c2ccc(C(=O)[O-])cc2)C(CC)CN(CC(=O)[O-])C(CC)CN1.[Mn+2] (centres unmarked); medium = water; solubility = 200 mg/mL
SMILES = N#Cc1c[nH]c2c(C(=O)N3CCN(CCc4ccc(F)cc4)CC3)cnn12; method = shake flask; medium = aqueous buffer; pH = pH 6.8; solubility = 226 µM
SMILES = COc1cc(Cc2cnc(N)nc2N)cc(OC)c1OC.O=c1[nH]cc(F)c(=O)[nH]1; method = shake flask; medium = aqueous buffer; solubility = 3.09 mg/mL
SMILES = C[N+](C)(C)CCO.O=C([O-])[C@@H](O)Cc1ccccc1; medium = water; solubility = 1380 mg/mL
SMILES = Cc1ccc(C(=O)C2=C(O)C(=O)N(CC(C)O)C2c2ccc(C(C)C)cc2)cn1 (centres unmarked); medium = aqueous buffer; time = 27 h; pH = pH 7.4; solubility = 4900 µM
SMILES = CC(C)=CCCC(C)(O)C1CCC2(C)C1C(O)CC1C3(C)CCC(OC4OC(COC(=O)CCCCCCCCCCN5C(=O)C=CC5=O)C(O)C(OC(=O)CCCCCCCCCCN5C(=O)C=CC5=O)C4O)C(C)(C)C3CCC12C (centres unmarked); medium = water; time = 24 h; temperature = 37 °C; solubility = 0.163 mg/mL
SMILES = C[C@@]1(C(=O)O)CC/C=C/[C@H](OC(=O)Nc2ccn([C@@H]3O[C@H](CO)[C@@H](O)C3(F)F)c(=O)n2)CC1; medium = PBS; solubility = 3 mg/mL
SMILES = O=C(c1ccccc1)c1cc(O)c(-c2cc(Cl)cc(Cl)c2)c(O)c1; method = shake flask; medium = aqueous buffer; time = 24 h; pH = pH 7.4; solubility = ~0.185 mg/mL
SMILES = COc1cc(C(C)C)c(Oc2cnc(N)nc2N)cc1I; medium = water; solubility = 100 µM
SMILES = O=C(O)COc1cc2c(OCC(=O)O)cc1Cc1cc(OCC(=O)O)c(cc1OCC(=O)O)Cc1cc(OCC(=O)O)c(cc1OCC(=O)O)Cc1cc(OCC(=O)O)c(cc1OCC(=O)O)Cc1cc(OCC(=O)O)c(cc1OCC(=O)O)Cc1cc(OCC(=O)O)c(cc1OCC(=O)O)C2; method = NMR; medium = aqueous buffer; time = 12 h; pH = pH 7.4; solubility = 33000 µM
SMILES = CC(C)CCCC(C)CCCC(C)CCOC1O[C@H](CO)[C@@H](O)[C@H](O)[C@@H]1O (some centres unmarked); medium = water; solubility = 19.7 µM
SMILES = O=C1CCCCC(=O)Nc2ccc3oc(cc3c2)CNCc2cccc(c2)CNCc2cc3cc(ccc3o2)N1; medium = aqueous buffer; pH = pH 7.4; solubility = 22 µM
SMILES = O=C(/C=C(O)/C=C/c1cccs1)/C=C/c1cccs1; method = shake flask; medium = aqueous buffer; time = 90 min; pH = pH 6.8; temperature = 37 °C; solubility = 10.7 µM
SMILES = CC1(C)CNC(=O)c2ccccc21; medium = aqueous buffer; pH = pH 7.4; solubility = > 400 µM
SMILES = CC(=O)c1c(O)c(C)c(O)c2c1OC1=CC(=O)/C3=C(/C)N[C@H](C(=O)O)CC1=CC=C(O)C=C[C@@]2(C)C3=O; method = HPLC; medium = water; time = 24 h; temperature = 25 °C; solubility = 1920 µM
SMILES = CC12N3Cc4c(OCCCS(=O)(=O)[O-])ccc(OCCCS(=O)(=O)[O-])c4CN1C(=O)N1Cc4c(OCCCS(=O)(=O)[O-])ccc(OCCCS(=O)(=O)[O-])c4CN(C3=O)C12C.[Na+].[Na+].[Na+].[Na+] (centres unmarked); method = NMR; medium = aqueous buffer; solubility = 466000 µM
SMILES = COc1ccc(C(=O)n2c(C)c(Cc3ccccc3O[C@@H](C)C(=O)O)c3cc(OC(F)(F)F)ccc32)cc1; medium = aqueous buffer; pH = pH 7.4; solubility = 30 µM

A few entries again:
SMILES = COc1cc(C)c(-c2ccc(O)c3c2C[C@@H](C)N[C@@H]3C)c2cccc(O)c12 (single isomer, unassigned); method = shake flask; medium = PBS; time = 24 h; pH = pH 6.5; temperature = 25 °C; solubility = 180 µM
SMILES = CC12N3Cc4c(c(OCCCS(=O)(=O)[O-])c5ccccc5c4OCCCS(=O)(=O)[O-])CN1C(=O)N1CN4C(=O)N5CN6C(=O)N7Cc8c(c(OCCCS(=O)(=O)[O-])c9ccccc9c8OCCCS(=O)(=O)[O-])CN8C(=O)N(CN9C(=O)N(CN(C3=O)C12C)C4C95)C6(C)C87C.[Na+].[Na+].[Na+].[Na+] (centres unmarked); method = NMR; medium = aqueous buffer; solubility = > 300000 µM and 336000 µM
SMILES = OC(CN1CCC2(CC1)CC(O)c1ccc3ccccc3c1O2)c1ccc(F)c(F)c1 (centres unmarked); medium = aqueous buffer; pH = pH 7.4; solubility = 57.1 µM
